Results pooled from the literature.
Numbered parts are unrelated; each lists some results of a single study.

Series 1
Target: Prothrombin, mature alpha-thrombin (F2, Homo sapiens, UniProt P00734)
Method: aptamer microarray, sandwich
Molecule type: DNA with 2'F-ANA
Sample: in vitro
Tested at: 200 nM
Setting: whole 15-mer aptamer, many near background
Added: Cy3 exosite-II aptamer, 400 nM
Direction: higher = stronger binding
Oligonucleotide: GGTTGGTGTGGTTGG
Modification | mean fluorescence intensity
2'F-ANA at 2 8 11 12 13 | 603 a.u.
2'F-ANA at 2 5 6 8 10 15 | 46.6 a.u.
2'F-ANA at 1 2 3 4 6 7 9 10 12 | 121 a.u.
2'F-ANA at 1 4 6 7 10 12 13 | 51.2 a.u.
2'F-ANA at 2 3 4 5 8 10 12 13 14 15 | 201 a.u.
2'F-ANA at 2 4 5 6 7 8 9 13 14 | 45.7 a.u.
2'F-ANA at 1 3 5 11 12 | 109 a.u.
2'F-ANA at 3 5 6 10 11 | 51.9 a.u.
2'F-ANA at 1 2 3 6 7 9 10 12 13 14 15 | 54.6 a.u.
2'F-ANA at 4 5 7 8 9 13 15 | 53 a.u.
2'F-ANA at 7 9 10 13 15 | 189 a.u.
2'F-ANA at 1 2 4 6 7 8 10 11 13 15 | 52.7 a.u.
2'F-ANA at 3 5 7 11 12 13 14 | 69.6 a.u.
2'F-ANA at 3 4 8 10 12 13 14 | 461 a.u.
2'F-ANA at 3 5 6 11 13 14 | 59.7 a.u.
2'F-ANA at 1 5 6 7 8 9 10 11 12 13 14 | 49.4 a.u.
2'F-ANA at 4 7 8 9 11 12 13 14 15 | 98.4 a.u.
2'F-ANA at 1 3 5 6 8 9 11 12 15 | 104 a.u.
2'F-ANA at 1 7 8 9 10 13 14 | 45.7 a.u.
2'F-ANA at 1 2 4 6 8 9 10 | 50.3 a.u.

Series 2
Target: Histone acetyltransferase KAT6A, winged helix 2, GST fusion (KAT6A, Homo sapiens, UniProt Q92794, residues 85-181)
Method: protein binding microarray
Molecule type: double-stranded DNA, one strand shown
Sample: in vitro
Tested at: not given
Setting: 8-mer, flanks averaged, mean of 2 arrays, mostly near background
Reference: not given
Direction: higher = stronger binding
Residues (chain): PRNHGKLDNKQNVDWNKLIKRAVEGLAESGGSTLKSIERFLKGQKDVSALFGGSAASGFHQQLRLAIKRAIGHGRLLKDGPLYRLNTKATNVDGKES
Oligonucleotide | E-score
TATTCGCA | 0.00446
ATACCTGA | 0.0861
GTGATAAC | -0.166
CGGGCGTC | 0.128
GACCAATA | -0.265
GCTCAAGC | 0.11
AGGTATCG | 0.128
CCTAGAAG | -0.0466
AGTAATAT | -0.000795
AAGCCCTA | -0.0946
CGTTAGCC | -0.0614
GACAGCCC | -0.047
CGAAAGCC | -0.0179
GCGTGCAC | 0.103
CAACAGTA | -0.0285
CCGCCGAC | 0.0879
ACTCATGA | -0.0201
GCTAGAAA | 0.0735
GCAAGCGA | 0.142
CACCAATC | -0.132

Series 3
Target: RNA binding protein fox-1 homolog 2, RRM domain, GST-SBP tag (RBFOX2, Homo sapiens, UniProt O43251-10, residues 100-194)
Method: RNA Bind-n-Seq
Molecule type: RNA
Sample: in vitro
Tested at: 365 nM
Setting: natural RNA segment, single round, ends assumed
Reference: no-protein control
Direction: higher = stronger binding
Shared flanks, not repeated: GGGAGUUCUACAGUCCGACGAUC … UGGAAUUCUCGGGUGCCAA
Construct (chain): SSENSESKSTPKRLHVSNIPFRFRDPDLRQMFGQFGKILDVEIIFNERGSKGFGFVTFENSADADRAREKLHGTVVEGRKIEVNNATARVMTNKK
Oligonucleotide | RBNS enrichment (R)
GUUCUGCAGCGUCAUGGAGGAUGGGCGGGCGCCAUGCAUGUGCAGGCUCACACUCCCAGCCUCCGCCACGCCACGAGGGACCUGUGACCCAGUGUCAUUCAGUAUUUUGU | 1.79
UCCUGCUCUCAAGUGAAAUGAGUUAUAUGAGAUAUAUAUAUAUAUAUUUGGUCUUAACUGGAUUUUAAAGAGUUUGGCGUAUUAGUAGCAUUUAAAGCCAGAUAGGGCAC | 1.13
UGAAGAGCUUCCCUCUUCCUACUGCAGCAUGAACUGCAAGCUCCCCUCAGCCCAUCUUGCUCCCUCUUCAGCCCGCUGAGGAGCUUUCUUGGGCUGCCCCCAUCUCUCCC | 1.75
UGGAAUGAUCCGAACUGGACUCACAUCCUGUAUGGUGGAUGGACUGUAUAUUGAGGGUUCCAUUCUUCGCGCAGUUUAGACAUCUCUGUUUUGAUUCUUUGUUGUUGUUU | 0.642
GACCACAUAAGAAGGCAAUUUUAGUGUAUUAAUCAUAGAUUAUUAUAAACUAUAAACUUAAGGGCAAGGAGUUUAUUACAAUGUAUCUUUAUUAAAACAAAAGGGUGUAU | 0.424
UUUGCACUCCUCCAUCCCACCUGUGAGUGGGAGUUUACCUGUUACCCUGUAAUUAAAAACAAAGGCUAGGUAACUAUUGUGCCAGUGUUGACAGUUUAAACUGCUAACAG | 0.239
CAAGAAUGUGGGAGUAUGUCUGCCGGUUUCAACACACACAGACAAACACAGCCACACGCGCACACAAGUAUAAGACUUUUUGUAUUACUGCUCCCUACUUAACAUACUUG | 0.27
UGUAGUUUUACUUUCCUAAGGAAUUACCAAGAAUAUCCUUUAAAAUUUAAAAGGAUGGCAAGUUGCAUCAGAAAGCUUUAUUUUGAGAUGUAAAAAGAUUCCCAAACGUG | 0.374

Series 4
Target: Sal-like protein 4, full length isoform B (SALL4, Homo sapiens, UniProt Q9UJQ4-2, residues 1-616)
Method: universal PBM
Molecule type: double-stranded DNA, one strand shown
Sample: in vitro
Tested at: not given
Setting: 8-mer, flanks averaged, mean of replicates
Direction: higher = stronger binding
Construct (chain): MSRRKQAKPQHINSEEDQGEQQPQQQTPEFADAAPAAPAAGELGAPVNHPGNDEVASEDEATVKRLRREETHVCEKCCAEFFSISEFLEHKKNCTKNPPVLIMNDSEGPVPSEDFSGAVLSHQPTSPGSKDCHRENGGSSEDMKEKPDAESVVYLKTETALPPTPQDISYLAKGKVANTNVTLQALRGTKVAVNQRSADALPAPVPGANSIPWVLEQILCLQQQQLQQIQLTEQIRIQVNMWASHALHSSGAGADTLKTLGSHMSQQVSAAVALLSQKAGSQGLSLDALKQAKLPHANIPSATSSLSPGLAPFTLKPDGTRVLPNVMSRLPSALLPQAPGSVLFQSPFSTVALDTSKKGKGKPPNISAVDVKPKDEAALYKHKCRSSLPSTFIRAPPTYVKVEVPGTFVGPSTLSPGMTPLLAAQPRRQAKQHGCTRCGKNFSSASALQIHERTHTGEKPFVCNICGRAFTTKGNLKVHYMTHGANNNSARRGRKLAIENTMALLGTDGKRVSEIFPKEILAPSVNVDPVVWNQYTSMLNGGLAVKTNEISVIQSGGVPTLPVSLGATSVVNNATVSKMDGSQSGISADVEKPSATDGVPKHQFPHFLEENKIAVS
Oligonucleotide | E-score
CGATGACA | 0.078
AGGAAAAC | 0.0183
ACCAGAGC | -0.166
GCGTCACA | -0.089
AGCTACGG | -0.265
AGGGAGGC | -0.267
CTCCCGTC | -0.142
CGCATGAG | -0.138
AAACCCGT | -0.0809
ACTGCTGA | -0.171
GGGAAATA | 0.16
CAAACTCG | -0.244
ATCTCCCG | -0.149
AACGCGGT | -0.0648
GGAGCACC | -0.321
ACGTCCGG | -0.279
AGACAATA | 0.319
CGGCGATC | -0.27
ATGTTAAC | 0.2
CCGATCCG | -0.303
GAGTATAA | 0.282
AGTCACAT | 0.159
CTAATGCA | 0.106
AGGCACGA | -0.102
AACTATTC | 0.121

Series 5
Target: PABPC1L2, full length, GST fusion (mouse, UniProt A0ABA7IW68)
Method: RNAcompete
Molecule type: RNA
Sample: in vitro
Tested at: 20 nM
Setting: 7-mer, probes averaged, single round
Reference: mean of 7-mers
Direction: higher = stronger binding
Construct (chain): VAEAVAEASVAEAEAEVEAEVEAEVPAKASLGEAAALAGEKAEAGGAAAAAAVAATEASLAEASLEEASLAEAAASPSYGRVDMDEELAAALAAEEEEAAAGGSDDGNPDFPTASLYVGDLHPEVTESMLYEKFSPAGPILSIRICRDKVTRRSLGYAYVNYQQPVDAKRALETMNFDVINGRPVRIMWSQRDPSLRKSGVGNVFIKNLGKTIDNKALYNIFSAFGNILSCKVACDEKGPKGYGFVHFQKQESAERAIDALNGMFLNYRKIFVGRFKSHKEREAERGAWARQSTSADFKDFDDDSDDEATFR
Oligonucleotide | 7-mer Z-score
AUCCGUA | -0.222
AGUACAA | 0.492
GGGAUAG | 0.184
ACCCGAC | -0.144
GUUUUAU | -0.229
UAGGACU | 0.0642
AAGAAUA | 0.378
UGAAGGC | 0.0388
GAGAAAC | 0.439
CAUAAUC | -0.0264
CAACAAC | 0.0551
GACUCAG | -0.141
GGCAGAG | 0.329
UGCCAUC | -0.142
UGUAGAA | 0.224
ACUCUAG | -0.246
ACAAGGU | 0.0551
GAAGCAG | -0.0391
UCGCGGU | -0.253
AAUCACC | -0.0319
GAUCGCG | -0.275
UGUCACC | -0.122
AUUCACC | -0.344
UUCUCCU | -0.479
UUCCGUA | -0.367

Excerpt of the above (series 1):
Modification | mean fluorescence intensity
2'F-ANA at 2 8 11 12 13 | 603 a.u.
2'F-ANA at 1 3 5 6 8 9 11 12 15 | 104 a.u.
2'F-ANA at 4 7 8 9 11 12 13 14 15 | 98.4 a.u.
2'F-ANA at 3 5 6 11 13 14 | 59.7 a.u.
2'F-ANA at 3 4 8 10 12 13 14 | 461 a.u.
